Measured values of several laboratories.
Parts stem from different laboratories: compare values within a part only.
Chain of UniProt Q9UBF8 (whole entry, looked up): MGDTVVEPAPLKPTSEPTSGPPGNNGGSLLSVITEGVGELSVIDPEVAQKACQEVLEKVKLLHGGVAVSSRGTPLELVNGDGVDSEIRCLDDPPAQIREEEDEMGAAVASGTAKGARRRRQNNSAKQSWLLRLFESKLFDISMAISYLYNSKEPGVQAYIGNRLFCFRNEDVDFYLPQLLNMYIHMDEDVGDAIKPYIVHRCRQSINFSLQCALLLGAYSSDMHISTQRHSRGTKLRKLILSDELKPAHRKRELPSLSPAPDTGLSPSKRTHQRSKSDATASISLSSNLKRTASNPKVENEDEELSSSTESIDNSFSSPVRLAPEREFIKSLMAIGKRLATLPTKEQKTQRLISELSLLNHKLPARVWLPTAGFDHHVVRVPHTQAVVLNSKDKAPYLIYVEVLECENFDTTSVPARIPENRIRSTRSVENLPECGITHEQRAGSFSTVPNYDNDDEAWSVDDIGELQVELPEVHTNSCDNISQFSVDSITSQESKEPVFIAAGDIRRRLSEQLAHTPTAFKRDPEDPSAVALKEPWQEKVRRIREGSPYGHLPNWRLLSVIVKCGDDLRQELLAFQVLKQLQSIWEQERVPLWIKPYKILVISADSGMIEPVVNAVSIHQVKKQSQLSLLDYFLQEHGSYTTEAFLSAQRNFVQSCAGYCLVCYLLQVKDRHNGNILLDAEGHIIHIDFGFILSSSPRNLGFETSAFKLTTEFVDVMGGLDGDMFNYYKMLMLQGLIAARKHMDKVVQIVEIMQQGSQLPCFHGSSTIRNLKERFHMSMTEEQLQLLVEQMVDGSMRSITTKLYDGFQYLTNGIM
Chain of UniProt O43318 (whole entry, looked up): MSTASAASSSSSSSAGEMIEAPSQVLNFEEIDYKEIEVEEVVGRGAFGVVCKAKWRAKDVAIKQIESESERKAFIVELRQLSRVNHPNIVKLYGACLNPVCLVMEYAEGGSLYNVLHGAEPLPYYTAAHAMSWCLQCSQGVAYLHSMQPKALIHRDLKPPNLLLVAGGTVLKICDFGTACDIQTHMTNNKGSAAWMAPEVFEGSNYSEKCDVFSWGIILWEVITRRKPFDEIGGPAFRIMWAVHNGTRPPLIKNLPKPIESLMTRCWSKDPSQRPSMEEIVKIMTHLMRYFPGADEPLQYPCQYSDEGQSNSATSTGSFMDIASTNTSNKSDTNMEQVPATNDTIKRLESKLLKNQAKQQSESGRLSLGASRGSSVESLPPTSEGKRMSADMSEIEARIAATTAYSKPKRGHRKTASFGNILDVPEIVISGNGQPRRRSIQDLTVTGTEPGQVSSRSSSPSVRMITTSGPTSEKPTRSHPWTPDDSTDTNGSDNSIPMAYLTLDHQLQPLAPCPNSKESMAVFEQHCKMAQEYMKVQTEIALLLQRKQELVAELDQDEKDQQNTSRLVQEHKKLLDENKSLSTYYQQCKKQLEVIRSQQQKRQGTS
Chain of UniProt P49674 (whole entry, looked up): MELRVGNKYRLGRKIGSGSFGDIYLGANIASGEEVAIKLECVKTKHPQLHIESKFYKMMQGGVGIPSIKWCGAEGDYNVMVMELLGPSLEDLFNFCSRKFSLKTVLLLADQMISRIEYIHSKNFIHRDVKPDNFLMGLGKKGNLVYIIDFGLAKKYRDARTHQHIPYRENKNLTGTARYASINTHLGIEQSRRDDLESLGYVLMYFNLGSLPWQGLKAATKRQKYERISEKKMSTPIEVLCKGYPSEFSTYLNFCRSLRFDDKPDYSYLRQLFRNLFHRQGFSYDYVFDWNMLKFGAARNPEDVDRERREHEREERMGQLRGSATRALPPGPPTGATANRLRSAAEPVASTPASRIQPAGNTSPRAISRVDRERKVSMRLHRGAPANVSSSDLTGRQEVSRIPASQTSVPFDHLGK
Chain of UniProt O43683 (whole entry, looked up): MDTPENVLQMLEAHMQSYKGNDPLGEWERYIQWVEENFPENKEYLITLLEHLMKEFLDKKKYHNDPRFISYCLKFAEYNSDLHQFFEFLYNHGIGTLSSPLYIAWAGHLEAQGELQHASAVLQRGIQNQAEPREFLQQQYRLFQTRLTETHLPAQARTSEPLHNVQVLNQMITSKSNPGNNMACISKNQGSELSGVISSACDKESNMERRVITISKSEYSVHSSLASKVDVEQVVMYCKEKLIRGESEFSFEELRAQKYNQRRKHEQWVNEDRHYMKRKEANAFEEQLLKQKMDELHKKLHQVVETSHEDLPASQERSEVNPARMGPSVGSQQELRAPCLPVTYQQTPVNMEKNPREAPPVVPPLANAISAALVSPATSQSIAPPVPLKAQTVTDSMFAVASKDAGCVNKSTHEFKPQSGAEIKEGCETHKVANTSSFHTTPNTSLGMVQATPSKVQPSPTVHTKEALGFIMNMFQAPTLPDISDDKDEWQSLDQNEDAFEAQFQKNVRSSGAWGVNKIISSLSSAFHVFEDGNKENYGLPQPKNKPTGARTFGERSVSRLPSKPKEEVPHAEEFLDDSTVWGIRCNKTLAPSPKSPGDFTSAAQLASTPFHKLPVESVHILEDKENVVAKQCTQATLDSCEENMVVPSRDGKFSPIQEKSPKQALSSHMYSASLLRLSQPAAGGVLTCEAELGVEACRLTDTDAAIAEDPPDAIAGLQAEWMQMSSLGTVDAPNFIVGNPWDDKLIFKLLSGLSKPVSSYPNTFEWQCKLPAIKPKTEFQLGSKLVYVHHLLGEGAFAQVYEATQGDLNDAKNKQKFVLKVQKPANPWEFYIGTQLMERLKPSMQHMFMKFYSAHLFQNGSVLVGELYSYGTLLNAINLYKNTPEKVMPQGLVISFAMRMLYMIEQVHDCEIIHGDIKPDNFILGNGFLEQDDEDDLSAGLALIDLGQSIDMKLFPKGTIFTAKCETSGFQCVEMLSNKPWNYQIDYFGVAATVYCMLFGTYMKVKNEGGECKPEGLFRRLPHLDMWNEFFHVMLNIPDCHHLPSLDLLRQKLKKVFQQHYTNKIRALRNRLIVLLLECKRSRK
Chain of UniProt Q9NQU5 (whole entry, looked up): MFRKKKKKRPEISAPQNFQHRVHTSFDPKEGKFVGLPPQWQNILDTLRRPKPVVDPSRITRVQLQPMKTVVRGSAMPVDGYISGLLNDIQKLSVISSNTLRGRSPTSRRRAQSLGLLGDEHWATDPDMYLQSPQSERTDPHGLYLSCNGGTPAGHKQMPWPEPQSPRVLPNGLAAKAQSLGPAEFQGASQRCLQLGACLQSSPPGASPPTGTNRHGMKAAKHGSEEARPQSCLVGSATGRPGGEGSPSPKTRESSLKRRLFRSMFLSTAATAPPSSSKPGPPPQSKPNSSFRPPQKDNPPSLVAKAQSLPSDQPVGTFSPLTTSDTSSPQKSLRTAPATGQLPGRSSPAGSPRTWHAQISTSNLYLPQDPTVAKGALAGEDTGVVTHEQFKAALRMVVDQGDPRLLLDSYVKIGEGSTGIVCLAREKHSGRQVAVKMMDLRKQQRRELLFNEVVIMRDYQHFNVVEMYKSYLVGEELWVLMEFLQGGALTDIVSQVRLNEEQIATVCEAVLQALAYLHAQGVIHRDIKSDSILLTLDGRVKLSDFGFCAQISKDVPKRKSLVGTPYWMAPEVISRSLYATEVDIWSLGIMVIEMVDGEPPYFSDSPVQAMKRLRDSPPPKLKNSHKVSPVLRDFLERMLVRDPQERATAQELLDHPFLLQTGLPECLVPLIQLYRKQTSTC
Chain of UniProt P08069 (whole entry, looked up): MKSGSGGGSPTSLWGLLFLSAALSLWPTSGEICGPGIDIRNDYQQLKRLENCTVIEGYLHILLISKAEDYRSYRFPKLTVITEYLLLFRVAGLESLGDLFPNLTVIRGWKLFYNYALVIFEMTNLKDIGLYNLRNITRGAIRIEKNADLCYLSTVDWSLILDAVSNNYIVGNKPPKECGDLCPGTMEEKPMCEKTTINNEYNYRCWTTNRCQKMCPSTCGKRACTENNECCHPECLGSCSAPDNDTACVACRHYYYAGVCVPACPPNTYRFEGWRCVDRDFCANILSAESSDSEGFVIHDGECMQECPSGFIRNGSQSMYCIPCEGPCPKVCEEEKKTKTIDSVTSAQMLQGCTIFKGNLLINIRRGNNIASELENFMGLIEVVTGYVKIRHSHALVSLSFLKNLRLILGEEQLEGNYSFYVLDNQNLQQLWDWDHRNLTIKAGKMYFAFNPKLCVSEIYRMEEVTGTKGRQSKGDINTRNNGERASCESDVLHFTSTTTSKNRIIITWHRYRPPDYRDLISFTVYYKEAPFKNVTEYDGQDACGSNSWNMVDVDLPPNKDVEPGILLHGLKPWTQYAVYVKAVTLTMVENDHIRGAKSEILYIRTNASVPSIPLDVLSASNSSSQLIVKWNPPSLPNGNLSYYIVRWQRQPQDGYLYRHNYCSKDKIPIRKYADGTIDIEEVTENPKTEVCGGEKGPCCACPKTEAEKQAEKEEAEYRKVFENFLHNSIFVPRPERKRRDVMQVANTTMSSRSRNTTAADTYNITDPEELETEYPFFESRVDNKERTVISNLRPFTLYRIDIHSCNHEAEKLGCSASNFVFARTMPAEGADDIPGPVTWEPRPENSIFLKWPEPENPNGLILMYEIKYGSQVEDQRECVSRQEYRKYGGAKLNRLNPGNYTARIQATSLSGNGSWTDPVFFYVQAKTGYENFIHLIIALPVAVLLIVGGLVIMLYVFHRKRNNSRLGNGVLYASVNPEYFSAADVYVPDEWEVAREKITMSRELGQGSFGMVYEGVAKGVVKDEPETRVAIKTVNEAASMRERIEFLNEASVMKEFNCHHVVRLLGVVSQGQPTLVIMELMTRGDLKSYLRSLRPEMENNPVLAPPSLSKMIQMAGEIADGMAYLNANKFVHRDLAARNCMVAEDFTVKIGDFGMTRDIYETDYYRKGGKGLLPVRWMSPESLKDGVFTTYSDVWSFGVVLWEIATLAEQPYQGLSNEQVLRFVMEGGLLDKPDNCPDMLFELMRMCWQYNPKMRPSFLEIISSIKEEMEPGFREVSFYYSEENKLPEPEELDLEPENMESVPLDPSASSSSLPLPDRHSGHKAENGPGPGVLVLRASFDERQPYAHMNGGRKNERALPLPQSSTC

Series 1 — cell line: HaCaT; concentration: 100 µM; time: 18 h; quantity: viability
N[C@@H](CCC(=O)N[C@@H](CS)C(=O)NCC(=O)O)C(=O)O: 98.6%
C#C[C@]1(O)CC[C@H]2[C@@H]3CCC4=CC(=O)CC[C@@H]4[C@H]3CC[C@@]21C: 84%
Cc1c(O)cccc1C(=O)N[C@@H](CSc1ccccc1)[C@H](O)CN1C[C@H]2CCCC[C@H]2C[C@H]1C(=O)NC(C)(C)C: 49.4%
COC(=O)C1=C(C)NC(C)=C(C(=O)OC(C)(C)CN(C)CCC(c2ccccc2)c2ccccc2)C1c1cccc([N+](=O)[O-])c1 (stereo not drawn): 92.3%
CN(C)CCOC(C)(c1ccccc1)c1ccccn1 (stereo not drawn): 59%
Cc1nc(C)c(C)nc1C: 107%
CN(c1nccc(=O)[nH]1)C1CCN(c2nc3ccccc3n2Cc2ccc(F)cc2)CC1: 57.6%
O=[N+]([O-])c1ccc(O)c2ncccc12: 40.5%
COc1cc2c(cc1O)CC[C@@H]1[C@@H]2CC[C@]2(C)[C@@H](O)CC[C@@H]12: 59%
Cc1noc(NS(=O)(=O)c2ccc(N)cc2)c1C: 78%
CN(C/C=C/c1ccccc1)Cc1cccc2ccccc12: 30.4%
O=C(NC(Cc1cc(=O)[nH]c2ccccc12)C(=O)O)c1ccc(Cl)cc1 (stereo not drawn): 114%
CC[C@H](Nc1ncnc2[nH]cnc12)c1nc2cccc(F)c2c(=O)n1-c1ccccc1: 85.5%

Series 2 — effect on: cell-free assay; method: competition with immobilised ligand; concentration: 1 µM; quantity: remaining binding
SMILES: O=C(O)c1cc(-c2ccc(C3CCNCC3)cc2)c2ccc(-c3ccc(C(F)(F)F)cc3)cc2c1
Ankyrin repeat and protein kinase domain-containing protein 1 (ANKK1, Homo sapiens, UniProt Q8NFD2): 100%
Serine/threonine-protein kinase B-raf (BRAF, Homo sapiens, UniProt P15056, V600E): 100%
Mitogen-activated protein kinase kinase kinase 5 (MAP3K5, Homo sapiens, UniProt Q99683): 100%
Casein kinase I isoform gamma-2 (CSNK1G2, Homo sapiens, UniProt P78368): 100%
Mitotic checkpoint serine/threonine-protein kinase BUB1 (BUB1, Homo sapiens, UniProt O43683): 100%
Serine/threonine-protein kinase PRP4 homolog (PRPF4B, Homo sapiens, UniProt Q13523): 100%
Phosphatidylinositol 4-kinase beta (PI4KB, Homo sapiens, UniProt Q9UBF8): 100%
Receptor-type tyrosine-protein kinase FLT3 (FLT3, Homo sapiens, UniProt P36888, R834Q): 100%
Mitogen-activated protein kinase kinase kinase kinase 1 (MAP4K1, Homo sapiens, UniProt Q92918): 96%
Mitogen-activated protein kinase kinase kinase 7 (MAP3K7, Homo sapiens, UniProt O43318): 100%
Epidermal growth factor receptor (EGFR, Homo sapiens, UniProt P00533, G719C): 100%
Tyrosine-protein kinase ABL1, non-phosphorylated (ABL1, Homo sapiens, UniProt P00519, T315I): 74%
Phosphatidylinositol 4,5-bisphosphate 3-kinase catalytic subunit alpha isoform (PIK3CA, Homo sapiens, UniProt P42336, E545K): 100%

Series 3 — host: human; medium: microsomes or S9; concentration: 2 µM; time: 0.5 h; quantity: remaining compound
CCOC(=O)N1CCN(C(=O)C2=C(C)C(=O)OC23CCN(S(=O)(=O)CC)CC3)CC1: > 99%
Cn1cc(-c2noc(-c3n[nH]c4ccccc34)n2)ccc1=O: 29.9%
O=S(=O)(/C(=C(\c1ccccc1)n1ccnc1)c1ccccc1)c1ccccc1: 8.23%
Cc1ccccc1Nc1nc(N)nc(-c2oc3ccccc3c2C)n1: 84.9%
CCOC(=O)C1CCN(c2nc(C)cc(Cl)n2)CC1: 0.0185%
Cc1ccc(S(=O)(=O)Nc2nc(C)cc(=O)[nH]2)cc1: 64.1%
CC(C)n1c(=O)ccc2cnc(N[C@H]3CC[C@H](CN(C)C)CC3)nc21: > 100%
Cn1cnc2c(sc3nc4c(cc32)COC(C)(C)C4)c1=O: 75.9%
CC(=O)NCCOc1c(C)cc(S(N)(=O)=O)cc1C: 71.4%
Oc1ccc([C@H]2c3c(O)cc(O)cc3[C@@H]3c4c(cc(O)c5c4[C@@H]2[C@@H](c2ccc(O)cc2)[C@@H]5c2cc(O)cc(O)c2)O[C@@H]3c2ccc(O)cc2)cc1: 77.5%
COc1ccc(-c2cn3c4ccccc4nc3n2CCN2CCN(C)CC2)cc1: 58.4%
CC1(C)CC(CNCCC(c2ccc(F)cc2)c2ccco2)CCO1 (stereo not drawn): 26.1%
COC(=O)c1c(C)n(C(C)=O)c2ccc(NS(=O)(=O)c3cccs3)cc12: 50.1%
COCCN1N=C(C)Cn2c1nc1c2c(=O)n(Cc2ccccc2Cl)c(=O)n1C: 82.8%

Series 4 — effect on: enzyme activity; mode: inhibitor; concentration: 0.5 µM; baseline: control; quantity: remaining activity
SMILES: O=S(=O)(NCCNC/C=C/c1ccc(Br)cc1)c1cccc2cnccc12
Protein kinase C theta type (PRKCQ, Homo sapiens, UniProt Q04759): 104%
Muscle, skeletal receptor tyrosine-protein kinase (MUSK, Homo sapiens, UniProt O15146): 80.7%
Ephrin type-A receptor 2 (EPHA2, Homo sapiens, UniProt P29317): 101%
Insulin-like growth factor 1 receptor (IGF1R, Homo sapiens, UniProt P08069): 104%
Dual specificity protein kinase CLK2 (CLK2, Homo sapiens, UniProt P49760): 106%
Mitogen-activated protein kinase kinase kinase 20 (MAP3K20, Homo sapiens, UniProt Q9NYL2): 105%
Protein kinase C zeta type (PRKCZ, Homo sapiens, UniProt Q05513): 79.8%
Tyrosine-protein kinase Tec (TEC, Homo sapiens, UniProt P42680): 102%
Tyrosine-protein kinase receptor TYRO3 (TYRO3, Homo sapiens, UniProt Q06418): 93.9%
Serine/threonine-protein kinase SIK2 (SIK2, Homo sapiens, UniProt Q9H0K1): 95%
Casein kinase I isoform epsilon (CSNK1E, Homo sapiens, UniProt P49674): 107%
Tyrosine-protein kinase JAK1 (JAK1, Homo sapiens, UniProt P23458): 87.3%
Serine/threonine-protein kinase PAK 6 (PAK6, Homo sapiens, UniProt Q9NQU5): 85.5%
Serine/threonine-protein kinase PAK 1 (PAK1, Homo sapiens, UniProt Q13153): 90.2%
Vascular endothelial growth factor receptor 1 (FLT1, Homo sapiens, UniProt P17948): 90.8%
Calcium/calmodulin-dependent protein kinase type 1 (CAMK1, Homo sapiens, UniProt Q14012): 107%
Calcium/calmodulin-dependent protein kinase kinase 1 (CAMKK1, Homo sapiens, UniProt Q8N5S9): 99.1%
Cyclin-dependent kinase 2, with cyclin E (CDK2, Homo sapiens, UniProt P24941): 99.3%
Ribosomal protein S6 kinase alpha-3 (RPS6KA3, Homo sapiens, UniProt P51812): 70.9%
Serine/threonine-protein kinase Sgk2 (SGK2, Homo sapiens, UniProt Q9HBY8): 84.2%
